Published values pooled from the literature.
Every numbered part comes from another study and shows a few of its results, in no order.

Study 1 — method: RNA Bind-n-Seq; molecule type: RNA; sample: in vitro; concentration: 365 nM; reference: no-protein control; direction: higher = stronger binding
Target: RNA binding protein fox-1 homolog 2, RRM domain, GST-SBP tag (RBFOX2, Homo sapiens, UniProt O43251-10, residues 100-194)
Setting: natural RNA segment, single round, ends assumed
All sequences stand within: GGGAGUUCUACAGUCCGACGAUC … UGGAAUUCUCGGGUGCCAA
Residues (chain): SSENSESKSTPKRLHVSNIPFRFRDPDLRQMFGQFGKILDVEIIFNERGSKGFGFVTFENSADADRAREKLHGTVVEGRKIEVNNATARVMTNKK
| Oligonucleotide | RBNS enrichment (R) |
| --- | --- |
| CAUUUUUUAAUUGAGCAAAUGUCUAUUGAACACUUAAAAUUAAUUAGAAUGUGGUAAUGGACAUAUUACUGAGCCUCUCCAUUUGGAACCCAGUGGAGUUGGGAUUUCUA | 0.32 |
| UUUUAUGCCACCAAUCACCAAAAAUUGAUACCACAUUCUUUAUUAUAAUGCUUUAUACUUUGCCAGGAAGAAGUAUAGCUAUAGUUGAGGUGUACCUAAGAAAUUAGCAA | 1.01 |
| GAGUCACGCUCAAUUGACCCUGCCAGAGACGGGAAGAGGGGGGCUGUCGGCUGCUGCUUCUGGGCCACGGGGAGCCCCAGGACCUAUGCACUUUAUUUCUGACCCCGUGG | 0.957 |
| CUGGACCUCUCACCCUGGGCCUCAGUGAAGGAGUAGGAACCUGCUGCCCACAGCUUCCUACAUCGAACAUGUCCAUGGUCCGAGAUGCCAUUUCAAACAGUUCCAGUGAC | 0.205 |
| GUAGCGUUCCCACUGGAGCUGUGUGCGCGGUGUGCAAAGGCGAAAAGAUAUGUCAUAGUUGCCAUAAAAGAGGCUGAUUGUGAAAUUCUGGUGGACUAGGCAAGGUACAG | 1.16 |
| AAAAGUGAAAAUACCAUGACACUGAAAAGAUGAUGCUAUCAGAUGCUGUUUAGAAAGCAUUUAUCUUGCAUUUCUUUAUUCUUUCUAAUUAUCUAAAAUUCAAUAAAAUU | 0.798 |
| UGUUGAGAUUUCCAUGUGAGAACUGAUAAUCAGGCUCUUGAUCUGCUUCCCUAAAUUACUUUUUUAGAGCCCAAACCCCAGGUUUAGGGUGAGGGUUUGUAAUACAAAGA | 0.372 |
| GAUAGACAAUUUCAGCUAGCCACAUAUUGUAUGUAUGAGAUUCAUAAAGACUUUCAAUCAUUUCAUUUUCAGACAACUGAAAUUUUGUUUAGUAUGUGAAUUCUUUUUUU | 0.484 |

Study 2 — method: protein binding microarray; molecule type: double-stranded DNA, one strand shown; sample: in vitro; concentration: not given; reference: not given; direction: higher = stronger binding
Target: Histone acetyltransferase KAT6A, winged helix 2, GST fusion (KAT6A, Homo sapiens, UniProt Q92794, residues 85-181)
Setting: 8-mer, flanks averaged, mean of 2 arrays, mostly near background
Residues (chain): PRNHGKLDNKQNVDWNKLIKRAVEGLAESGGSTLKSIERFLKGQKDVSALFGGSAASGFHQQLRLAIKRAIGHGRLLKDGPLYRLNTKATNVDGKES
| Oligonucleotide | E-score |
| --- | --- |
| GGCCGGCC | 0.161 |
| AGAGGGAC | 0.114 |
| GTGCCCTA | -0.174 |
| CTTATACC | -0.131 |
| TACACGTA | -0.187 |
| AAAATAGA | 0.0415 |
| CTTGTCAA | 0.12 |
| AGACTTAA | -0.0998 |
| AAATGCTC | 0.00757 |
| ACACTCAC | 0.0984 |
| AAGAACGG | -0.0777 |
| ACCGGCCC | 0.151 |
| CGGTCTTA | -0.198 |
| CGTGGACC | -0.0264 |
| TGGAGCCA | -0.0796 |
| GGCGGTAC | 0.0392 |
| CATAAGGG | 0.00918 |
| CGCTTATC | -0.0125 |
| CAATGGTG | -0.094 |
| ATAACTGA | -0.0517 |
| CTATTATA | 0.0752 |
| AAACTCAA | 0.097 |
| TAGGGGAA | -0.163 |
| TAGCCTCA | 0.0406 |
| ATGTTAAA | -0.0178 |

Study 3 — method: protein-binding microarray; molecule type: double-stranded DNA, one strand shown; sample: in vitro; concentration: 250 nM; setting: 60-bp whole probe; added: salmon DNA 0.4 mg/ml; reference: random background probes; direction: higher = stronger binding; all sequences stand within: GCCTAGCAC … GTCTTGATTCGCTTGACGCTGCTG
Target: Interferon regulatory factor 5, full length, phosphomimetic (IRF5, Homo sapiens, UniProt Q13568-2, residues 1-514, K96S/S451D/S453D/S456D/S462D)
| Oligonucleotide | log fluorescence |
| --- | --- |
| GACGGAATCCTTCTCCTGACGTGCTAG | -0.26 z-score |
| GACGGTCTCGGGATCGGGACGTGCTAG | -0.255 z-score |
| GACGAACGGGGGTATCGAGACGTGCTA | 1.25 z-score |
| GACGGTCTCCTTATCCTGATGTGCTAG | -0.0543 z-score |
| GACGATATCCTACTGCTGACGTGCTAG | 0.128 z-score |
| TCAGGTTTCCTTTTCCTTTAGTGCTAG | 1.6 z-score |
| GACGGTCTCCTTCTCGTGACGTGCTAG | -0.264 z-score |
| GTCACTCTCTGGGCTGTGGGTGTGCTA | -0.344 z-score |
| TTAGATAGCGGGTTTCGATTAGTGCTA | 6.54 z-score |
| TCAGAATTAGGTTTCACACTGTGCTAG | 1.7 z-score |
| TTAGGTATCCTTCCCCTTTAGTGCTAG | 0.0575 z-score |
| TTAAAACTGAGTATCGATTAGTGCTAG | 7.27 z-score |
| GACGATATTGGGACTGGAGACGTGCTA | 0.229 z-score |
| TACTCTCTCCATGTGTTTAAGTGCTAG | 0.502 z-score |
| CTTTGTTTTTTTCTATATGCGTGCTAG | 1.73 z-score |
| GACGCACTGGGACTGGGGACGTGCTAG | -0.392 z-score |
| GACGGTCTCGTTCTCGGGACGTGCTAG | -0.198 z-score |
| GACGGTTTCGAATTTCGGGACGTGCTA | 4.92 z-score |
| GTCGGTATCGGGACTGGGGACGTGCTA | 1.67 z-score |

Study 4 — method: universal PBM; molecule type: double-stranded DNA, one strand shown; sample: in vitro; concentration: not given; direction: higher = stronger binding
Target: Sal-like protein 4, full length isoform B (SALL4, Homo sapiens, UniProt Q9UJQ4-2, residues 1-616)
Setting: 8-mer, flanks averaged, mean of replicates
Target sequence (chain): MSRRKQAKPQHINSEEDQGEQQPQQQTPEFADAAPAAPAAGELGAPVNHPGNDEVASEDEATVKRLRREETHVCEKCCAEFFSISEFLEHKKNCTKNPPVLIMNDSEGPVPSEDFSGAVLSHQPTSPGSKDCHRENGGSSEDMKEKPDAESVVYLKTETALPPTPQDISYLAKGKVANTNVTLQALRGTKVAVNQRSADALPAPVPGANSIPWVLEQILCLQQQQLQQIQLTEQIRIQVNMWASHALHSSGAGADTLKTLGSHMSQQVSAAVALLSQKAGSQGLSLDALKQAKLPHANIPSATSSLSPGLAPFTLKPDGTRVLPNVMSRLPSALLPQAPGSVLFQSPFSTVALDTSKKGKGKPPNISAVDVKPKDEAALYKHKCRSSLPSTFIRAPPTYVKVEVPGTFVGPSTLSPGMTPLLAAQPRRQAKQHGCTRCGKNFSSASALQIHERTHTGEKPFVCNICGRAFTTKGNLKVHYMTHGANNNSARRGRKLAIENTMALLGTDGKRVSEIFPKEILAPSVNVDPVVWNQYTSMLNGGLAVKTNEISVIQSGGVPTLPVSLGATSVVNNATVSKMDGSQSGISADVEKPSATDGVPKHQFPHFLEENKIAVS
| Oligonucleotide | E-score |
| --- | --- |
| CCAATGGG | -0.37 |
| ACCAATCA | 0.044 |
| CTGATTTA | 0.185 |
| AATCGTCT | 0.0396 |
| AGGGCCCG | -0.276 |
| ACTCAACG | -0.0252 |
| ACTAGAAA | 0.239 |
| GTCGTAGA | 0.0636 |
| AAGCTGCT | -0.276 |
| CAGCGGCC | -0.316 |
| ATACTCAA | 0.198 |
| AATTTGCT | 0.266 |
| CTGATAAC | 0.145 |
| GCATAGGC | 0.00894 |
| CAGTTGCG | -0.15 |
| CAGTTGCA | -0.096 |
| ACACTGCT | -0.0274 |
| ATGGGTTA | 0.139 |
| AACACGTT | 0.121 |
| CTCGTTAC | 0.0619 |
| GGGAAGAC | -0.173 |
| GTACCGCA | -0.171 |
| ACTTCCCT | -0.13 |
| GTGAGCTA | 0.034 |
| ATCTTCGC | 0.071 |

Repeated from above (study 4):
| Oligonucleotide | E-score |
| --- | --- |
| ACTAGAAA | 0.239 |
| GTCGTAGA | 0.0636 |
| AAGCTGCT | -0.276 |
| CAGCGGCC | -0.316 |
| ATACTCAA | 0.198 |
| AATTTGCT | 0.266 |
| CTGATAAC | 0.145 |
